Measurements from different studies.
Protocols differ between the studies behind these lines. Positions count from the first letter of the parent shown. ± gives the spread as reported.
RIGI: RIGI 2-925 (Homo sapiens, UniProt O95786)
Chain of UniProt O95786 (whole entry, looked up): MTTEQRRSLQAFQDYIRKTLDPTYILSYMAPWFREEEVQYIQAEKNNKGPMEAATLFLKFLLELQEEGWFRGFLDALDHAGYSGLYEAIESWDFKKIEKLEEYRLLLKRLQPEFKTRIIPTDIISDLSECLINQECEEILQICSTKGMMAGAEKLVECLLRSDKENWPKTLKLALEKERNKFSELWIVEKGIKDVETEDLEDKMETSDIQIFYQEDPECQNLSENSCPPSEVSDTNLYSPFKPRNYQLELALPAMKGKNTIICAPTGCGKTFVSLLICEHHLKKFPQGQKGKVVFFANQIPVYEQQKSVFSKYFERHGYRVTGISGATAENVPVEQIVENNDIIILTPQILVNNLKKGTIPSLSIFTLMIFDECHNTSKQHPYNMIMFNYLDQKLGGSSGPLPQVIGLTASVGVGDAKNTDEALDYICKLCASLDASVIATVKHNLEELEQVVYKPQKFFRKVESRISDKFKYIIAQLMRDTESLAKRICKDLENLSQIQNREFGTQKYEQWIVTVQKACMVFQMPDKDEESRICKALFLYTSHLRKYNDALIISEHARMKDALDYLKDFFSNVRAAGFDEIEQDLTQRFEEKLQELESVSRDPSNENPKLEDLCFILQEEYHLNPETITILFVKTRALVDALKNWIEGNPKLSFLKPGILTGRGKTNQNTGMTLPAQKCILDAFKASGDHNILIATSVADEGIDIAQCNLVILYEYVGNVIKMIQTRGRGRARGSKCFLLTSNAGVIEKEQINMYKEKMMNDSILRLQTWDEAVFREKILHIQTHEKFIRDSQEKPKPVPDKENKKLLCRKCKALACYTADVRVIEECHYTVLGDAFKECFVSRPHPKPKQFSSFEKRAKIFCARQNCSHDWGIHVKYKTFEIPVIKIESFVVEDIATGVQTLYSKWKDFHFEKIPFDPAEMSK
cdc6-1 full length assumed: cdc6-1 full length assumed (Saccharolobus solfataricus, UniProt Q980N4)
Chain of UniProt Q980N4 (whole entry, looked up): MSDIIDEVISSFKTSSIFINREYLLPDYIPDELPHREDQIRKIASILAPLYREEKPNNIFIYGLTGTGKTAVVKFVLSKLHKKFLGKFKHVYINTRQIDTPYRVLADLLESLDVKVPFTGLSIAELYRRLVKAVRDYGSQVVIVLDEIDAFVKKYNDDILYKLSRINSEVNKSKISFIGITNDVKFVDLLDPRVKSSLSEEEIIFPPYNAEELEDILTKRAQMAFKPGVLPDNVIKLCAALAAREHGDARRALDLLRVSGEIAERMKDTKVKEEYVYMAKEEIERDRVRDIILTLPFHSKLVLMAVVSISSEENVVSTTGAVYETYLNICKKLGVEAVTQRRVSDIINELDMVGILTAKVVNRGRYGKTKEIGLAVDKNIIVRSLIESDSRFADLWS
WRKY45-1: WRKY45-1 104-182 (Oryza sativa, UniProt Q5W6D6)
Chain of UniProt Q5W6D6 (whole entry, looked up): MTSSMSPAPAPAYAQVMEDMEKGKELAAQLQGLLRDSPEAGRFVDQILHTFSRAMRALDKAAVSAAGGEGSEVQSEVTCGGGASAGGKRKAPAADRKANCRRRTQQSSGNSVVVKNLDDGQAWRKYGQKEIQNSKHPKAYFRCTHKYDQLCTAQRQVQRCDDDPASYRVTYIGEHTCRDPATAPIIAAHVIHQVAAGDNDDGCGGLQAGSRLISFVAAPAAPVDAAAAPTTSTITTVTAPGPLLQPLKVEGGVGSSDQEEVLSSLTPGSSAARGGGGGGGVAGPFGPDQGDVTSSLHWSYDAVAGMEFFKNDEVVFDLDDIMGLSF
bin: bin 311-408 (Drosophila melanogaster, UniProt Q9VS05)
Chain of UniProt Q9VS05 (whole entry, looked up): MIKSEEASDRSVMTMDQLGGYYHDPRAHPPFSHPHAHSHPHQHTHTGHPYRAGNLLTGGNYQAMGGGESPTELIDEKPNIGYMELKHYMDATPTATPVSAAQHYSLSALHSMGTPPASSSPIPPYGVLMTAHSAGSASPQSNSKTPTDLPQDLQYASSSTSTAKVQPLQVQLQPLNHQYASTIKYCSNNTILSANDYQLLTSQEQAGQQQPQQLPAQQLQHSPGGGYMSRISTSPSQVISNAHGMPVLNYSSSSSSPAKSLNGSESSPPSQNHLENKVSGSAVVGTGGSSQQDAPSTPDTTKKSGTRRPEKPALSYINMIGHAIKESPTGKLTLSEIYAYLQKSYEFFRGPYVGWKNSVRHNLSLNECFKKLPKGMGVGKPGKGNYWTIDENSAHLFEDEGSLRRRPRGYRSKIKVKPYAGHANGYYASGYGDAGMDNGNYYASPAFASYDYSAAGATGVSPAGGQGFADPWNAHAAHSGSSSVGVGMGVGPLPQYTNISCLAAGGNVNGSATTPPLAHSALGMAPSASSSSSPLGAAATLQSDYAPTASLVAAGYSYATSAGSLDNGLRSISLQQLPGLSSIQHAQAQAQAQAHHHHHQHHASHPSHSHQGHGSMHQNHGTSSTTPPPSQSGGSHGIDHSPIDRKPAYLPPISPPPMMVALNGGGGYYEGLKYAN
P1: METTL9 full-length, 1-318 (Homo sapiens); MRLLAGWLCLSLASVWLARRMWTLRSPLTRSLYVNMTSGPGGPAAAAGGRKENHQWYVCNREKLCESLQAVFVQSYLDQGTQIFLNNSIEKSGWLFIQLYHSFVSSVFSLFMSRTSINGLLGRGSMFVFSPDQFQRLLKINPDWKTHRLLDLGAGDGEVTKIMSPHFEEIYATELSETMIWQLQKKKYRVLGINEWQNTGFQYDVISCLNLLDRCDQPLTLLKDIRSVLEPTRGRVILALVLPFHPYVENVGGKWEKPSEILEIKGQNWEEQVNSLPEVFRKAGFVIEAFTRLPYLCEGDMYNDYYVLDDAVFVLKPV
Chain of UniProt Q9WTJ2 (whole entry, looked up): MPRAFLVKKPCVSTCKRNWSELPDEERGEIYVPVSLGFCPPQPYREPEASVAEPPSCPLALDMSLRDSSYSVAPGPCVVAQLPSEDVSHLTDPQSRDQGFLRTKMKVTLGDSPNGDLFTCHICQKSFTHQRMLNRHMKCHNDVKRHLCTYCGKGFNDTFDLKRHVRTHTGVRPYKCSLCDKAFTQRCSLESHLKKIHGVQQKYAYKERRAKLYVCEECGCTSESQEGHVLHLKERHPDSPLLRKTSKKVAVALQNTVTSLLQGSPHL
Chain of UniProt Q9C0J8 (whole entry, looked up): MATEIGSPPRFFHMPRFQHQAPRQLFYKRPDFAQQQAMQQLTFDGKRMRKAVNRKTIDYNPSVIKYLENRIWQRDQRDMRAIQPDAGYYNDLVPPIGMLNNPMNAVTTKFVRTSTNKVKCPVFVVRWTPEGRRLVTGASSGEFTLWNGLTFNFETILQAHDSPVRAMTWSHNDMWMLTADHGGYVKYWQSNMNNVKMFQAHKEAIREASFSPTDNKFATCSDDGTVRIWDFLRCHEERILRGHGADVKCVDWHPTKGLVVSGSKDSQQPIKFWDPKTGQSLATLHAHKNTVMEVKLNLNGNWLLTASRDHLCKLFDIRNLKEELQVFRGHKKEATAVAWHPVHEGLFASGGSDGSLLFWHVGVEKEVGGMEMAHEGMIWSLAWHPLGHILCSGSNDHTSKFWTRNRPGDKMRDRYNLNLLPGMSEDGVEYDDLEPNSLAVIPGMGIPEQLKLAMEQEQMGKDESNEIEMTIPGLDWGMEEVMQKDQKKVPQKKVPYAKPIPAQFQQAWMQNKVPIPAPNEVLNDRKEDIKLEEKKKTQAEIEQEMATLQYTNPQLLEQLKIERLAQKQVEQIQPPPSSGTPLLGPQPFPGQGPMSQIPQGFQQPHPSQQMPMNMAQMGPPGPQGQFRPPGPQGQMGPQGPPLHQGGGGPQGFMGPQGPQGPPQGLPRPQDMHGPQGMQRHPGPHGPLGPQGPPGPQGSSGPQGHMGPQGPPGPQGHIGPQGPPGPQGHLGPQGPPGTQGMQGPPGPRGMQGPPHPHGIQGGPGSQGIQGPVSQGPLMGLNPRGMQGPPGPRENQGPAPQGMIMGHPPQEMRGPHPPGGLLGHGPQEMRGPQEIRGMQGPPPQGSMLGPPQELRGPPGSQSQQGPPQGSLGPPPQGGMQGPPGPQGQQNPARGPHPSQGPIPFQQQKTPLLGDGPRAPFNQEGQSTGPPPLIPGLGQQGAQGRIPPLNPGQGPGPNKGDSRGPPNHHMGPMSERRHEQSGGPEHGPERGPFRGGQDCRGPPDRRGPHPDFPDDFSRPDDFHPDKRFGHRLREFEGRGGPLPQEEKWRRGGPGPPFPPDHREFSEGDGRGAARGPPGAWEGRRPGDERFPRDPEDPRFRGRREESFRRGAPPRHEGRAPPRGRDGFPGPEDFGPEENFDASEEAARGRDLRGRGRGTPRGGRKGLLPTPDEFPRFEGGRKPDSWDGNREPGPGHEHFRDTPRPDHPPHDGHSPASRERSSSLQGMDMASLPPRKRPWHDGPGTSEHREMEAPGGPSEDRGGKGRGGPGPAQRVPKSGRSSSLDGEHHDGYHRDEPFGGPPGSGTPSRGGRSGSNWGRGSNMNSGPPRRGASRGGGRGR
Chain of UniProt Q00059 (43-220, unmodified, looked up): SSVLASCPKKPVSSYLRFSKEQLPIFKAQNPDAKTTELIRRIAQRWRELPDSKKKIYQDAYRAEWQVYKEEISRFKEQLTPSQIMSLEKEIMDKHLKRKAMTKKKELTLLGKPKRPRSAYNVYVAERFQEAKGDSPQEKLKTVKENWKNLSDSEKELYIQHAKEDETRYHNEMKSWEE
Chain of UniProt Q40152 (whole entry, looked up): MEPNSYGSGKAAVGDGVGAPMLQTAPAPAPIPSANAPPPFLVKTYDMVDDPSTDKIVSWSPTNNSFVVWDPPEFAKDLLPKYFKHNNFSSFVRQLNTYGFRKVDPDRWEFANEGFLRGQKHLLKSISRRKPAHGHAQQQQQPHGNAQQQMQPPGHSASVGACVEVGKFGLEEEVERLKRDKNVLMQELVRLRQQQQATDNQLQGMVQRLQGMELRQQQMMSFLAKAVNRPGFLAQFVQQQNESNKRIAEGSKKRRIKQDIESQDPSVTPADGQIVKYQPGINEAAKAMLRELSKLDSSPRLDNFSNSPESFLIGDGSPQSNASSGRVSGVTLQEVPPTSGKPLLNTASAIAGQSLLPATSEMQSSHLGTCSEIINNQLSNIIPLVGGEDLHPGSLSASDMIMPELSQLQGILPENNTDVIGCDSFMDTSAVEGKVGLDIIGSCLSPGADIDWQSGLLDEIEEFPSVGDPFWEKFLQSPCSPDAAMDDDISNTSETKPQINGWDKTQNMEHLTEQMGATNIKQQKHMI
Chain of UniProt P26212 (whole entry, looked up): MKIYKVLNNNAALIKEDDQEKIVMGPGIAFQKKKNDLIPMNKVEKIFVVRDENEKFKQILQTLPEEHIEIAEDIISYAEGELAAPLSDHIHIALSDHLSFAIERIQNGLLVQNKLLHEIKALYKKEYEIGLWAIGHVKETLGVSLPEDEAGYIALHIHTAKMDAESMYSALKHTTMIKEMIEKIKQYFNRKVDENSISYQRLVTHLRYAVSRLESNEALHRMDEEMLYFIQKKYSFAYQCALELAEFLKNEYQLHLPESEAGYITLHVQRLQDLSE

Substance	tested on	method	molecule type	notes	added	endpoint	result
ATTGCGTATAATGTGTGGA (ssDNA)	rpoD full length assumed I48S (Escherichia coli, UniProt P00579)	UV crosslinking	single-stranded DNA	free sigma70 without core	–	binding	binds
GGGUAACCAUUAUAACCUCCAAUAAACAAGUUAACAACAC (ssRNA)	WDR33 full length assumed (Homo sapiens, UniProt Q9C0J8)	UV cross-linking	RNA	within CPSF complex	–	binding	binds
GGACGUACGUUUCGACGUACGUCC (structured RNA; 5'-triphosphate, hairpin, 10 bp)	RIGI	MST	folded RNA	no nucleotide, near sensitivity limit	–	Kd	2.8 ± 1.6 nM
CUAUUAACGCAAUUACGCAAUAAUAUUUAUAUUAAACUCC (ssRNA)	CTNNB1 full length assumed (Homo sapiens, UniProt P35222)	EMSA	RNA	–	–	binding	no binding
CTATGAAGCTTCACAAGAAG (dsDNA)	Heat shock factor protein HSF8 (Solanum lycopersicum, UniProt Q40152)	EMSA	double-stranded DNA, one strand shown	–	–	binding	binds
CAGAATCTTGGAAGCATACAATGTGGAGACAA (ssDNA)	ZTA1 1-336 (Komagataella phaffii, UniProt F2QTB9)	EMSA	single-stranded DNA	–	–	binding	binds
CCTTCATCAAAGCCGTTACTTTGAACACAG (dsDNA)	Ovol1 (Mus musculus, UniProt Q9WTJ2)	EMSA	double-stranded DNA, one strand shown	–	–	binding	binds
TCCTTTAATTTGTCTCTCTGTAAATTTCCTACGTTTCCAATGACAATCATTCCATTTTACG (dsDNA)	cdc6-1 full length assumed	EMSA	double-stranded DNA, one strand shown	–	–	binding	binds
TCCAATTGACAGGC (dsDNA)	WRKY45-1	EMSA	double-stranded DNA, one strand shown	–	–	binding	no binding
TTAATGTTGTTTCGTTTCCGCCA (dsDNA)	bin	competition	double-stranded DNA, one strand shown	not purified	–	binding	no binding
DNA 1 AGCGTGGGAGTGTTA / DNA 2 TAACACTCCCACGC (dsDNA)	WT1 ZF1-4, -KTS, 319-437 (Homo sapiens)	fluorescence polarization	double-stranded DNA	–	–	binding	binds
GTCGACCAGCTGAGTCGACCAGCTG (ssDNA; N6-methyl-dA)	YTHDF2 391-579 (Homo sapiens, UniProt Q9Y5A9)	pull-down	single-stranded DNA	–	–	binding	binds
TTCCTTCCTTTAATGTTTCAGATGAAATTAAGAGAGTGTCTCTTTTAAAAACGATAATAC (dsDNA)	cdc6-1 full length assumed	EMSA	double-stranded DNA, one strand shown	–	–	binding	binds
TAACAGTCACCCCCCAACTAAC (dsDNA)	TFAM residues 43-220 del221-246 (Homo sapiens, UniProt Q00059)	EMSA	double-stranded DNA, one strand shown	–	–	binding	binds
AGTATGTGACAGCC (dsDNA)	WRKY45-1	EMSA	double-stranded DNA, one strand shown	–	–	binding	no binding
TTAATGGTTTGTTGTTGTCGCCA (dsDNA)	bin	EMSA	double-stranded DNA, one strand shown	not purified	–	binding	binds
RNA 1 GCAUGCGACCUCUGUUUGA / RNA 2 UCAAACAGAGGUCGCAUGC (dsRNA; 5'-triphosphate, duplex, 19 bp)	RIGI	MST	double-stranded RNA	–	ADP-AlFx	Kd	1.6 ± 0.9 nM
TTACTTCACACTTTAATAAA (dsDNA)	bin	competition	double-stranded DNA, one strand shown	not purified	–	binding	no binding
GGAUUGUGACUGGUAAAGCAGGCAAGACC (ssRNA (Bacillus subtilis); hairpin, two internal loops)	sacT 1-57 (Bacillus subtilis, UniProt P26212)	EMSA	folded RNA	–	–	binding	binds
TTCCGGGTTGCCTATTCAGATT (dsDNA)	bin	competition	double-stranded DNA, one strand shown	not purified	–	binding	no binding
P1 T115A	SLC39A7 residues 66-74	ITC	–	–	SAH 2 mM	Kd	34300 nM
